Results collected from several papers.
Lines come from different studies, so protocols differ. Several values in a cell are separate wells, animals, samples, runs or records. ± gives the spread as reported.
F2: Prothrombin (F2, Homo sapiens, UniProt P00734)
prp N63Q: Ribosomal processing cysteine protease Prp (prp, Staphylococcus aureus, UniProt Q2FXS9, N63Q)
Chain of UniProt P48730 (whole entry, looked up): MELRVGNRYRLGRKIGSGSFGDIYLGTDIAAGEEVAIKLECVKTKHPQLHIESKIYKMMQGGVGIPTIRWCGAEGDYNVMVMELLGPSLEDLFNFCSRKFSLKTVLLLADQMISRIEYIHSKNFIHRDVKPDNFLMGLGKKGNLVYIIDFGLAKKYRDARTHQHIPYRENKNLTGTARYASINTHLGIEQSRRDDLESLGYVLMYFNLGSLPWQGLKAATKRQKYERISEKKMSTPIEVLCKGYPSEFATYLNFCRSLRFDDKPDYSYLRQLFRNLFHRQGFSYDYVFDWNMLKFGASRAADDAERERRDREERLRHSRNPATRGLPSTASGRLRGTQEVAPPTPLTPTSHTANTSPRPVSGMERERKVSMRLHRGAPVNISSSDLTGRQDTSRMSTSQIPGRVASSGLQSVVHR
Chain of UniProt Q9H2X6 (whole entry, looked up): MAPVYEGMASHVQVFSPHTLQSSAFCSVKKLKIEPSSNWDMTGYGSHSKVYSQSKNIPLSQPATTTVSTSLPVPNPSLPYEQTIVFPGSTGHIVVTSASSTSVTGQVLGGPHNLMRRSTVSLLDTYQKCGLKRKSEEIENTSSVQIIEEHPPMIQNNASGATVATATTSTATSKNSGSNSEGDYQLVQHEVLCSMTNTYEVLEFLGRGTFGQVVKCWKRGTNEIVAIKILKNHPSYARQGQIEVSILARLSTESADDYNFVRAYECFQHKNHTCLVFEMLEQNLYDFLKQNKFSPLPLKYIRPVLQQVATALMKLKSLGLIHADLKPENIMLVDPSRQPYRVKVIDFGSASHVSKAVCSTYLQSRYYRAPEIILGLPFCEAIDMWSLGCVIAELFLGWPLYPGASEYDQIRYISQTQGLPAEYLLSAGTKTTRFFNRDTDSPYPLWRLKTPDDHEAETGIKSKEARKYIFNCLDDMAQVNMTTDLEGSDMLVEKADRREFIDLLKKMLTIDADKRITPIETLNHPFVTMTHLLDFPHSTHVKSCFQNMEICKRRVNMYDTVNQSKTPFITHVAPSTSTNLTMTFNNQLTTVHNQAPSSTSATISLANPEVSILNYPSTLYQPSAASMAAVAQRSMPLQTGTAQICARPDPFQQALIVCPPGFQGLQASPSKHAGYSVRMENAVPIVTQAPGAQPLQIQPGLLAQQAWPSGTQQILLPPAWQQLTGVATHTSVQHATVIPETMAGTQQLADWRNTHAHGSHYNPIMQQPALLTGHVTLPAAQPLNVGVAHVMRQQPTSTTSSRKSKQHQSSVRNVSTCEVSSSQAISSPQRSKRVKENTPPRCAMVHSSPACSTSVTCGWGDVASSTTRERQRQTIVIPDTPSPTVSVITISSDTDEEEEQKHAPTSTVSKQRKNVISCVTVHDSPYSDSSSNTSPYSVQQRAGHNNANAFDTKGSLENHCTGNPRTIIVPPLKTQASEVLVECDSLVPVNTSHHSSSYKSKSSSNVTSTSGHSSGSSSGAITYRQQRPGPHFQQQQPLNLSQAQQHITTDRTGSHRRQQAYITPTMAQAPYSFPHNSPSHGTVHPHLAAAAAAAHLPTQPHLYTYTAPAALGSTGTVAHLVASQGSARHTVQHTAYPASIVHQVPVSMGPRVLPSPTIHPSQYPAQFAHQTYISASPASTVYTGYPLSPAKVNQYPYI
Chain of UniProt P00811 (whole entry, looked up): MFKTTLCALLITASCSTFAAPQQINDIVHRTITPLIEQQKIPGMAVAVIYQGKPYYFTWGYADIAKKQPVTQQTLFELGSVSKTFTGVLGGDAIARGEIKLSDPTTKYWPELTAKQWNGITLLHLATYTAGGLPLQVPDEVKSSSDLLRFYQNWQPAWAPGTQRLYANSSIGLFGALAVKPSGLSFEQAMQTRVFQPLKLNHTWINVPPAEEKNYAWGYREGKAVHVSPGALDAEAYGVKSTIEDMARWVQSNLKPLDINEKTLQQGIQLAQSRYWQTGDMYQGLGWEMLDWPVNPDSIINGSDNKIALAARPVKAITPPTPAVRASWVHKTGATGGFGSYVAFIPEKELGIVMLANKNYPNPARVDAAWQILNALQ
Chain of UniProt Q9Y616 (whole entry, looked up): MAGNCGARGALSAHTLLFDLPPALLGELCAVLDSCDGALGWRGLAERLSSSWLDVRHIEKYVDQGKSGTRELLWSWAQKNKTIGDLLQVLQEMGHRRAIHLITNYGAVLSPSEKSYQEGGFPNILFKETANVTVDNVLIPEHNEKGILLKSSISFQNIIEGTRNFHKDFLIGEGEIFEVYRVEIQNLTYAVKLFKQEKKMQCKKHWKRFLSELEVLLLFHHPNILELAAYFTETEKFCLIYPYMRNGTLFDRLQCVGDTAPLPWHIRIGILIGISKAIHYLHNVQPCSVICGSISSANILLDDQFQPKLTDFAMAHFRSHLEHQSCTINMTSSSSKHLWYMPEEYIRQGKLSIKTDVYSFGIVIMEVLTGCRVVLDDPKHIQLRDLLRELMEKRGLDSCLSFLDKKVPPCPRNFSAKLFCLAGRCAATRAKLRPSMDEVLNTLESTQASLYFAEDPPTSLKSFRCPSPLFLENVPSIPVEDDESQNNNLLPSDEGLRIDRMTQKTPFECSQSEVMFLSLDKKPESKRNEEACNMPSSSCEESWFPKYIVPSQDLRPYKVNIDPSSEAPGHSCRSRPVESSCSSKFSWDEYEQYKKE
Chain of UniProt Q13557 (whole entry, looked up): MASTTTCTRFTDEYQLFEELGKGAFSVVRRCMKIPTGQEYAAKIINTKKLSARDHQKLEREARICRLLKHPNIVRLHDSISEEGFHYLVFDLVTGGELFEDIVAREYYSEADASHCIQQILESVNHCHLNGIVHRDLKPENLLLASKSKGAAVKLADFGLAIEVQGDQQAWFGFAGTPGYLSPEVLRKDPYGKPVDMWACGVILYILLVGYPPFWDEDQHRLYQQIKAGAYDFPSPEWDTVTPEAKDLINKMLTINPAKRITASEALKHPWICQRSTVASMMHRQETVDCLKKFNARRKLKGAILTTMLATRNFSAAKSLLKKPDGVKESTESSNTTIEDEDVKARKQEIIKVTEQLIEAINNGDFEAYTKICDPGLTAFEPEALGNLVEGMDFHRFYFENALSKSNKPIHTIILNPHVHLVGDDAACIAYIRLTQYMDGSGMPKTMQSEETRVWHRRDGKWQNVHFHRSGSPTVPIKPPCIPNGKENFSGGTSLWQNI
Chain of UniProt P81947 (whole entry, looked up): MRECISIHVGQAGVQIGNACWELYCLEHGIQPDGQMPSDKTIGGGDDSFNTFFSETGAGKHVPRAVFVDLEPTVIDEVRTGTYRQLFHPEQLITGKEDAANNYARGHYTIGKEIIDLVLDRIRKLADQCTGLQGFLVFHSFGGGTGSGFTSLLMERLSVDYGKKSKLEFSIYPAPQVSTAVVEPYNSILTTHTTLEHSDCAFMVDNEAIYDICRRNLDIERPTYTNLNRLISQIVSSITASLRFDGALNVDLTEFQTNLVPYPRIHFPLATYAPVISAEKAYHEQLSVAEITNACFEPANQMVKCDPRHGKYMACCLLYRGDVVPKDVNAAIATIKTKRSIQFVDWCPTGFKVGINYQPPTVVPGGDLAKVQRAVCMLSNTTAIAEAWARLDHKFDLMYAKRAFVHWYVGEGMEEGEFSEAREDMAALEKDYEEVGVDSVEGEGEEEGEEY
Chain of UniProt P05067 (whole entry, looked up): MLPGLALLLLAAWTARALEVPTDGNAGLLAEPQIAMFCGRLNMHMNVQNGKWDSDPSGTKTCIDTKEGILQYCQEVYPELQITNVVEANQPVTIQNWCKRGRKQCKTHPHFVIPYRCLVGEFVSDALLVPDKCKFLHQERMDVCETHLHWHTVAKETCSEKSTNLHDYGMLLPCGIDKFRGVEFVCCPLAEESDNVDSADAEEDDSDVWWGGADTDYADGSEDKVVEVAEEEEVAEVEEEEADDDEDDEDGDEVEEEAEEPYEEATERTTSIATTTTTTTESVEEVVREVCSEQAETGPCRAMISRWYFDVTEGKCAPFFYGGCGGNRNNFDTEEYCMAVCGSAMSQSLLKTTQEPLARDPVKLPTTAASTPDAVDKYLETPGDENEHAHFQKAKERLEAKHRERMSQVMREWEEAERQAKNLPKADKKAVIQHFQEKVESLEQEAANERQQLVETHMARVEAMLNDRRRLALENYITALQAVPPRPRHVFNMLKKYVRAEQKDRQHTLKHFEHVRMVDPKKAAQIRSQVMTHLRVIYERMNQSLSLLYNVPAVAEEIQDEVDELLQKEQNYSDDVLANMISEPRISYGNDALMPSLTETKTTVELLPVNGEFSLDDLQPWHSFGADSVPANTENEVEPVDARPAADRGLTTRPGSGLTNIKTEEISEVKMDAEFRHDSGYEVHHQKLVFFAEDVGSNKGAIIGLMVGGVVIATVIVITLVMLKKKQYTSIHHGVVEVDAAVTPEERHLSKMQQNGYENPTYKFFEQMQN
Chain of UniProt Q6B856 (whole entry, looked up): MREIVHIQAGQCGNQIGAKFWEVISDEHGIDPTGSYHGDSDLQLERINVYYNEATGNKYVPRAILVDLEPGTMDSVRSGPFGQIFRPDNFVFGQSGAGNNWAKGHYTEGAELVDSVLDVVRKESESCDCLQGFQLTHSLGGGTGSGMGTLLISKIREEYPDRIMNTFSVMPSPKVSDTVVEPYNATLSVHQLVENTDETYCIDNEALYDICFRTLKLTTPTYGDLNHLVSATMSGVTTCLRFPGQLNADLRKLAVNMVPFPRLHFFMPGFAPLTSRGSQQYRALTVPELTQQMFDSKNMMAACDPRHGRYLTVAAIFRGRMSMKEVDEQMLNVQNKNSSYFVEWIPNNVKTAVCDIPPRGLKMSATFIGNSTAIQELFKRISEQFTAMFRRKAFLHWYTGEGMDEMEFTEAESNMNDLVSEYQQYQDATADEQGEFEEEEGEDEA

O=C(Nc1ccc2c(c1)B(O)OC2)c1cccc(OCc2ccccc2)n1
inhibition (F2; enzyme activity; 50 µM, with: substrate 50 µM): ≤ 10%

FC(F)(F)c1cccc(Nc2nc(NCCOc3ccccc3)nc3[nH]cnc23)c1
inhibition (Casein kinase I isoform delta (CSNK1D, Homo sapiens, UniProt P48730); enzyme activity, inhibitor, Thermo Fisher kinase screening; 5 µM): 9%

COc1cc(C(=O)c2c[nH]c3cc(-c4ccc(C)cc4)ccc23)cc(OC)c1OC
inhibition (Tubulin alpha-1B chain/TUBB2B (Bos taurus, UniProt P81947+Q6B856); tubulin polymerization, turbidimetry; concentration not given): inhibited

CC(C)(F)C[C@H](N[C@@H](c1ccc(-c2ccc(S(C)(=O)=O)cc2)cc1)C(F)(F)F)C(=O)NC1(C#N)CC1
inhibition (prp N63Q; enzyme activity, inhibitor; 10 µM, prp 21.4 nM, with: FITC peptide substrate 0.5 µM): 49.1 ± 26.2%

COc1cc(Nc2ncc(F)c(Nc3ccc4c(n3)NC(=O)C(C)(C)O4)n2)cc(OC)c1OC
inhibition (Interleukin-1 receptor-associated kinase 3 (IRAK3, Homo sapiens, UniProt Q9Y616); KINOMEscan; 10 µM): 96%

N#C[C@@H]1CCCN1C(=O)CNC12CC3CC(CC(O)(C3)C1)C2
inhibition (prp N63Q; enzyme activity, inhibitor; 10 µM, prp 21.4 nM, with: FITC peptide substrate 0.5 µM): 32.5 ± 13.1%

COCc1c(-c2cc3cc(C)cc(OC)c3s2)c2c(N)ncnn2c1CN1CCNC(=O)C1
inhibition (aldose reductase; enzyme activity; 10 µM): 10%

CC(C)(C)NC(=O)N[C@H](C(=O)N1C[C@H]2[C@@H]([C@H]1C(=O)NC(CC1CCC1)C(=O)C(N)=O)C2(C)C)C(C)(C)C (some centres unmarked)
inhibition (prp N63Q; enzyme activity, inhibitor; 10 µM, prp 21.4 nM, with: FITC peptide substrate 0.5 µM): -11.6 ± 6.6%

O=C(Nc1ccc2c(c1)B(O)OC2)c1ccc(C(F)(F)F)cc1
inhibition (F2; enzyme activity; 50 µM, with: substrate 50 µM): ≤ 10%

CN1CCN(c2cc(-c3ccncc3)c(-c3ccc4ccccc4c3)nn2)CC1
inhibition (Beta-2 adrenergic receptor (ADRB2, Homo sapiens, UniProt P07550); antagonist, FLIPR; 10 µM): 21%

CC(C(O)c1ccc(O)cc1)N1CCC(Cc2ccccc2)CC1 (centres unmarked)
inhibition (Glutamate receptor ionotropic, NMDA 2B, with GluN1 (Grin2b, Rattus norvegicus, UniProt Q00960); HEK293; 10 µM): 88%

O=C(Nc1cccnn1)N1CCC(=Cc2cccc(Oc3ccc(C(F)(F)F)cn3)c2)CC1
inhibition (Calcium/calmodulin-dependent protein kinase type II subunit delta (CAMK2D, Homo sapiens, UniProt Q13557); enzyme activity, inhibitor; 10 µM, with: autocamtide-2): 6%

CC(C)C[C@H](NC(=O)[C@H](Cc1ccccc1)NC(=O)c1cnccn1)B(O)O
inhibition (prp N63Q; enzyme activity, inhibitor; 10 µM, prp 21.4 nM, with: FITC peptide substrate 0.5 µM): 4.1 ± 6.8%

CCCC[C@@H](NC(=O)[C@@H](N)Cc1ccc(O)cc1)C(=O)NCC(=O)N[C@@H](Cc1ccc(F)cc1)C(=O)N(C)CCC[C@@]1(c2ccc(F)cc2)OCc2cc(C#N)ccc21
inhibition (Alpha-2A adrenergic receptor (ADRA2A, Homo sapiens, UniProt P08913); 10 µM): < 50%

NC(=O)c1cccc(-c2c[nH]c3ncnc(N4CCOCC4)c23)c1
inhibition (Serine/threonine-protein kinase 4 (STK4, Homo sapiens, UniProt Q13043); kinase activity, inhibitor, PhosphoSens kinetic; concentration not given, 2 h, with: ATP at Km): inhibited

C[C@@H](N)Cc1c[nH]cn1
inhibition (Histamine H3 receptor (Hrh3, Rattus norvegicus, UniProt Q9QYN8); binding; 1 × 10 µM): 87.5%

O=c1ccc2ccccc2o1
inhibition (Prostaglandin G/H synthase 1 (PTGS1, Homo sapiens, UniProt P23219); enzyme activity; 10 µM): 4.41%

CC(=O)O/N=C1\C(=O)N(Cc2cc(Cl)ccc2Cl)c2ccc(Cl)cc21
inhibition (prp N63Q; enzyme activity; 10 µM, 21.4 nM enzyme dimer, with: 0.5 µM FITC-labelled peptide substrate): -5.19 ± 25.4%

CC[C@H](C)[C@H](NC(=O)[C@@H](NC(=O)[C@H](N)Cc1ccccc1)C(C)C)C(=O)N[C@@H](C)C(N)=O
inhibition (Amyloid-beta precursor protein (APP, Homo sapiens, UniProt P05067); amyloid-beta aggregation, thioflavin T fluorescence; 2.0 µM, 120 h, with: 2 µM amyloid-beta): 82.2%

C[C@@H]1N=C(c2ccccc2F)c2cc(Br)ccc2-n2cnc(C(=O)O)c21
inhibition (GABA-A receptor GABA site; binding; 10 µM): 42.4 ± 11.6%

O=C(Nc1cnccc1Cl)N1CCN(Cc2ccc3c(c2)OC(F)(F)O3)CC1
inhibition (Testis-specific serine/threonine-protein kinase 2 (TSSK2, Homo sapiens, UniProt Q96PF2); kinase activity, inhibitor; 50 µM, human, with: CHKtide): 27%

CC(C)N1CCC[C@H]1CNC(=O)c1cn(C2CCCC2)c(=O)c2c1c1ccccc1n2C
inhibition (P2X purinergic receptor (rabbit); radioligand binding; 10 µM): 28%

C[C@H](C(=O)N[C@H]1COc2ccccc2[C@@H]1S(C)(=O)=O)c1ccc(F)cc1
inhibition (Ca2+-ATPase, pig skeletal muscle; enzyme activity; 10 µM, Eurofins selectivity panel): -3%

CC(=O)NC[C@H]1[C@H](O)[C@H](O)[C@@H]2[C@H](O)C[C@@H](CO)N21
inhibition (β-N-acetylglucosaminidase; enzyme activity, inhibitor, colorimetric; Canavalia ensiformis; 1.29 nM, with: p-nitrophenyl GlcNAc substrate): 65% and 68.9%

CN(CCN1CCC(OC(=O)Nc2ccccc2-c2ccccc2)CC1)C(=O)c1ccc(CN2CCC(C(N)=O)CC2)cc1
inhibition (rat central benzodiazepine site; radioligand binding; 1 µM, with: [3H]flunitrazepam 0.4 nM): 0%

COc1ccc(N2C(=O)N(c3c(C)cccc3Cl)Cc3cnc(Nc4ccc(C5CCN(C)CC5)cc4OC)nc32)nc1
inhibition (NUAK family SNF1-like kinase 1 (NUAK1, Homo sapiens, UniProt O60285); kinase activity, inhibitor; 0.5 µM, ARK5): -15%

Cn1cccc1-c1cccnc1
inhibition (5-hydroxytryptamine receptor 7 (HTR7, Homo sapiens, UniProt P34969); binding; 50 µM): -53.8%

CN(C(=O)n1cnc(-c2ccc[n+]([O-])c2)c1)C1CCCCC1
inhibition (Homeodomain-interacting protein kinase 2 (HIPK2, Homo sapiens, UniProt Q9H2X6); kinase activity, inhibitor; 50 µM, with: myelin basic protein substrate): 0%

Cn1c(=O)cc(N2CCC[C@@H](N)C2)n(Cc2cc(F)ccc2C#N)c1=O
inhibition (prp N63Q; enzyme activity, inhibitor; 10 µM, prp 21.4 nM, with: FITC peptide substrate 0.5 µM): -11.4 ± 7.7%

O=C(NCc1ccc(B(O)O)cc1)c1cccc(OCc2ccccc2)c1
inhibition (F2; enzyme activity; 50 µM, with: substrate 50 µM): ≤ 10%

CC(C)(C)C(=O)Oc1ccc(S(=O)(=O)Nc2ccccc2C(=O)NCC(=O)O)cc1
inhibition (prp N63Q; enzyme activity, inhibitor; 10 µM, prp 21.4 nM, with: FITC peptide substrate 0.5 µM): 39.2 ± 9%

O=C(Nc1ccc2c(c1)B(O)OC2)c1ccc(OCc2ccc(Cl)cc2)cc1
inhibition (F2; enzyme activity; 50 µM, with: substrate 50 µM): ≤ 10%

COc1ccc(C[C@H](NC(=O)[C@H](C)NC(=O)CN2CCOCC2)C(=O)N[C@@H](Cc2ccccc2)C(=O)C2(C)CO2)cc1 (stereo in doubt)
inhibition (prp N63Q; enzyme activity; 10 µM, 21.4 nM enzyme dimer, with: 0.5 µM FITC-labelled peptide substrate): 15.9 ± 5.4%

O=C(Nc1ccc2c(c1)B(O)OC2)OCc1ccccc1
inhibition (F2; enzyme activity; 50 µM, with: substrate 50 µM): ≤ 10%

CC(C)C(NC(=O)c1ccco1)C(=O)NCC(c1ccco1)N1CCCCC1 (centres unmarked)
inhibition (Beta-lactamase (ampC, Escherichia coli K-12, UniProt P00811); enzyme activity, inhibitor; 10 µM, with: CENTA substrate): 6%
